# Experimental data of several laboratories.
# Lines come from different studies, so protocols differ.
# CNR2: Cannabinoid receptor 2 (CNR2, Homo sapiens, UniProt P34972)
# OPRK1: Kappa-type opioid receptor (OPRK1, Homo sapiens, UniProt P41145)
# 4'-phosphopantetheinyl transferase PptT: 4'-phosphopantetheinyl transferase PptT (Mycobacterium tuberculosis, UniProt O33336)
# LATS1: Serine/threonine-protein kinase LATS1 (LATS1, Homo sapiens, UniProt O95835)
# HTR1E: 5-hydroxytryptamine receptor 1E (HTR1E, Homo sapiens, UniProt P28566)
Structure (SMILES),target,assay,setting,measurement,value
[2H]c1c([2H])c([C@]2([2H])CCCN2C(=O)C(C)(C)Oc2ccc3cn[nH]c3c2)c([2H])c([2H])c1C([2H])([2H])[2H],"MAP3K19 (Homo sapiens, UniProt Q56UN5)","binding, competition with immobilised ligand",1 µM,remaining binding,97%
C[C@@]12CC[C@H](O)C[C@H]1CC[C@@H]1[C@@H]2CC[C@@]2(C)C(=O)CC[C@@H]12,CNR2,"cAMP, agonist",,EC50,19800 nM
CO[C@H]1O[C@H](CO)[C@@H](O)[C@H](O)[C@@H]1O,"Concanavalin-A (Canavalia ensiformis, UniProt P02866)","binding, ITC",,Kd,18000 nM
CCCc1cc(O)c2c(c1)OC(C)(C)[C@@H]1CCC(C)=C[C@@H]21,CNR2,"ligand displacement, radioligand",cell membranes,Ki,47 nM
COC(=O)/C=C/C(=O)N[C@@H]1CC[C@@]2(O)[C@H]3Cc4ccc(O)c5c4[C@@]2(CCN3CC2CC2)[C@H]1O5,"Oprm1 (Rattus norvegicus, UniProt P33535, K303E)","ligand displacement, radioligand",cell membranes,IC50,10.2 nM
O=C(N[C@H]1CC[C@@]2(O)[C@H]3Cc4ccc(O)c5c4[C@@]2(CCN3CC2CC2)[C@H]1O5)c1ccc(Br)s1,OPRK1,"ligand displacement, radioligand",cell membranes,Ki,1.24 nM
O=c1c2cc(Cl)ccc2[nH]c(=S)n1Cc1ccc(-c2nnn[nH]2)nc1,4'-phosphopantetheinyl transferase PptT,"enzyme activity, inhibitor, FP",,IC50,140 nM
CNC(C)C(=O)c1ccccc1 (racemic),"SLC6A2 (Homo sapiens, UniProt P23975)","calcium signal, agonist, fluorescence",,EC50,182 nM
Nc1ncc(-c2nc(N3CCOCC3)nc(N3CCOCC3)n2)c(C(F)F)n1,"TIE1 (Homo sapiens, UniProt P35590)","cell-free assay, competition with immobilised ligand",10 µM,remaining binding,84%
COC(=O)[C@H]1[C@@H](OC(=O)c2ccccc2)C[C@@H]2CC[C@H]1N2C,"SIGMAR1 (Cavia porcellus, UniProt Q60492)","ligand displacement, radioligand",cell membranes,Ki,9040 nM
CN(C)Cc1cc2[nH]c(=S)n(Cc3cccnc3)c(=O)c2cc1Cl,4'-phosphopantetheinyl transferase PptT,"enzyme activity, inhibitor, FP",,IC50,> 100000 nM
Cc1ccc(C(=O)N[C@H]2CC[C@@]3(O)[C@H]4Cc5ccc(O)c6c5[C@@]3(CCN4CC3CC3)[C@H]2O6)s1,OPRK1,"ligand displacement, radioligand",cell membranes,Ki,1.69 nM
O=c1c2cc(Cl)ccc2[nH]c(=S)n1Cc1cccnc1,4'-phosphopantetheinyl transferase PptT,"enzyme activity, inhibitor, FP",,IC50,370 nM
Oc1ccc2c3c1O[C@H]1c4oc5ccccc5c4C[C@@]4(O)[C@@H](C2)N(CC2CC2)CC[C@]314,"Trpm7 (Mus musculus, UniProt Q923J1, F924W)","calcium signal, agonist",,EC50,57400 nM
"COc1cc(CCNC(C)c2ccccc2O)c(OC)cc1C#N (single isomer, unassigned; (+))","HTR2B (Homo sapiens, UniProt P41595)","G protein activation, agonist, BRET",,EC50,8500 nM
Cc1nn(C)cc1-c1nc2c(N3CCN(Cc4ccc(Cl)cc4)CC3)c(Cl)cnc2[nH]1,LATS1,"binding, competition with immobilised ligand",1 µM,remaining binding,89%
COc1ncccc1-c1cnn2ccc(N3CCN(C(=O)OC(C)C)CC3)nc12,LATS1,"binding, competition with immobilised ligand",1 µM,remaining binding,100%
CN1CCC(C(=O)c2cccc(NC(=O)c3c(F)cc(F)cc3F)n2)CC1,HTR1E,"G protein activation, agonist, BRET",,EC50,902 nM
CC(=O)OCc1cc2[nH]c(=S)n(Cc3cccnc3)c(=O)c2cc1Cl,4'-phosphopantetheinyl transferase PptT,"enzyme activity, inhibitor, FP",,IC50,> 100000 nM
CC[C@@H](CO)NC(=O)[C@@H]1C=C2c3cccc4[nH]cc(c34)C[C@H]2N(C)C1,HTR1E,"G protein activation, agonist, BRET",,EC50,17 nM
O=c1c2cc(Cl)ccc2[nH]c(=S)n1Cc1cc[nH]n1,4'-phosphopantetheinyl transferase PptT,"enzyme activity, inhibitor, FP",,IC50,6850 nM
CC(N)C(=O)c1cccc(Cl)c1 (centres unmarked),"Slc6a4 (Rattus norvegicus, UniProt P31652)","transporter uptake, inhibitor, radiometric",,IC50,2780 nM
O=c1c2cc(Cl)ccc2[nH]c(=S)n1Cc1ccc(-n2cccn2)nc1,4'-phosphopantetheinyl transferase PptT,"enzyme activity, inhibitor, FP",,IC50,160 nM
O=C(N[C@H]1CC[C@@]2(O)[C@H]3Cc4ccc(O)c5c4[C@@]2(CCN3CC2CC2)[C@H]1O5)c1ccc([N+](=O)[O-])s1,OPRK1,"ligand displacement, radioligand",cell membranes,Ki,2.49 nM
O=c1c2cc(Cl)c(CO)cc2[nH]c(=S)n1Cc1cccnc1,4'-phosphopantetheinyl transferase PptT,"enzyme activity, inhibitor, FP",,IC50,730 nM
CCCCCc1cc(O)c2c(c1)OC(C)(C)c1ccc(C)cc1-2,CNR2,"ligand displacement, radioligand",cell membranes,Ki,163 nM

# For quick reference, copied from above:
Structure (SMILES),target,assay,setting,measurement,value
O=C(N[C@H]1CC[C@@]2(O)[C@H]3Cc4ccc(O)c5c4[C@@]2(CCN3CC2CC2)[C@H]1O5)c1ccc(Br)s1,OPRK1,"ligand displacement, radioligand",cell membranes,Ki,1.24 nM
O=c1c2cc(Cl)ccc2[nH]c(=S)n1Cc1ccc(-c2nnn[nH]2)nc1,4'-phosphopantetheinyl transferase PptT,"enzyme activity, inhibitor, FP",,IC50,140 nM
CNC(C)C(=O)c1ccccc1 (racemic),"SLC6A2 (Homo sapiens, UniProt P23975)","calcium signal, agonist, fluorescence",,EC50,182 nM
